Experimental data collected from several papers.
Compare with care: the assays were run in different laboratories. Values joined by “and” are separate records of one study, mostly repeats; a detail may differ. Numbers after ± are the reported error.
rep main protease: Replicase polyprotein 1ab, main protease (rep, Severe acute respiratory syndrome coronavirus 2, UniProt P0DTD1)
rep methyltransferase: Replicase polyprotein 1ab, methyltransferase (rep, Severe acute respiratory syndrome coronavirus 2, UniProt P0DTD1)
rep papain-like protease: Replicase polyprotein 1ab, papain-like protease (rep, Severe acute respiratory syndrome coronavirus 2, UniProt P0DTD1)

`N#CC(CC1CCCNC1=O)NC(=O)C(CC1CC1)NC(=O)c1cc2cc(F)cc(F)c2[nH]1` (stereo not drawn) has an IC50 of 0.007 µM (rep main protease; enzyme activity, inhibitor).
The IC50 of `CC1CC(c2ccc(C(=O)O)cc2F)=NN1c1ccc(C#N)c(Cl)c1` (stereo not drawn) is reported as 3.98 µM (rep methyltransferase; enzyme activity, inhibitor).
`CC(=O)N[C@@H](Cc1ccc(O)cc1)C(=O)N[C@@H](CCCNC(=N)N)C(=O)N[C@@H](Cc1ccccc1)C(=O)N[C@H]1CCC[C@@H]1C(=O)N[C@@H](CCCNC(=N)N)C(=O)N[C@@H](CC(N)=O)C(=O)N[C@H]1CCC[C@@H]1C(=O)N[C@H](C(=O)N[C@@H](Cc1ccccc1)C(=O)N[C@H]1CCC[C@@H]1C(=O)N[C@@H](Cc1ccccc1)C(=O)N[C@@H](Cc1ccc(O)cc1)C(=O)N[C@H]1CCC[C@@H]1C(=O)N[C@H](C(=O)N[C@@H](CC(=O)O)C(N)=O)[C@@H](C)O)C(C)C` gave an IC50 of 0.62 µM (rep main protease; enzyme activity, inhibitor).
With `CCCC(C(=O)Nc1ccccc1C)n1c(SCc2ccc(F)cc2)nc2cccnc21` (stereo not drawn) the IC50 was > 20 µM (rep papain-like protease; enzyme activity, inhibitor).
`N#Cc1ccccc1C[C@@H](N)C(=O)N[C@H](Cc1ccc(Cl)cc1Cl)C(=O)N[C@H](CC(N)=O)Cc1ccc(F)cc1` gave an IC50 of 0.8 µM (rep main protease; enzyme activity, inhibitor, fluorescence).
The IC50 of `COc1cc(OC)cc(C(=O)N(CCC(=O)N2CCNCC2)Cc2cccc(Cl)c2)c1` is reported as 68 ± 29.8 µM (Replicase polyprotein 1ab, nsp3 macrodomain (rep, Severe acute respiratory syndrome coronavirus 2, UniProt P0DTD1); ADP-ribose binding, inhibitor, fluorescence polarization; Mac1 domain, SARS-CoV-2).
The IC50 of `C[C@@H]1O[C@@H](Oc2cc3c(=O)oc4c(O)c(O)cc5c(=O)oc(c2O)c3c45)[C@H](O)[C@H](O)[C@H]1OC(=O)c1cc(O)c(O)c(O)c1` is reported as 2 µM (rep main protease; enzyme activity, inhibitor).
With `CN(C)CCCCNC(=O)CC(Cc1ccc(F)cc1)NC(=O)C(Cc1ccc(Cl)cc1Cl)NC(=O)C(Cl)Cc1ccccc1C#N` (stereo not drawn) the IC50 was 3 µM (rep main protease; enzyme activity, inhibitor, fluorescence).
For `O=C(ONC(=O)c1ccccc1)Oc1ccccc1`, the IC50 was 3.6 µM (rep main protease; enzyme activity, inhibitor, FRET).
`O=C1CC(c2ccccc2)Oc2ccccc21` (stereo not drawn) has an IC50 of 6.48 ± 0.53 µM (Replicase polyprotein 1ab, nsp13 helicase (rep, Severe acute respiratory syndrome coronavirus 2, UniProt P0DTD1); helicase unwinding activity, inhibitor).
`CC(C)(C)c1ccc(N(C(=O)C(F)Cl)C(C(=O)NCCc2cccc(F)c2)c2cncnc2)cc1` (stereo not drawn) has an IC50 of 0.25 µM (rep main protease; enzyme activity, inhibitor).
`CCOC(=O)Cn1[se]c2ccccc2c1=O` has an IC50 of 0.201 µM (rep main protease; enzyme activity, inhibitor).
With `CCCCCCCCCCCCCCCC(=O)N[C@@H](CCC(=O)NCCOCCOCCC(=O)NCCOCCOCCC(=O)NCCCC[C@H](NC(=O)[C@H](CC(=O)O)NC(=O)[C@H](CC(C)C)NC(=O)[C@H](Cc1ccc(O)cc1)NC(=O)[C@H](CCCCN)NC(=O)[C@H](CO)NC(=O)[C@H](Cc1ccc(O)cc1)NC(=O)[C@H](CC(=O)O)NC(=O)[C@H](CO)NC(=O)[C@@H](NC(=O)[C@H](Cc1ccccc1)NC(=O)[C@@H](NC(=O)CNC(=O)[C@H](CCC(N)=O)NC(=O)[C@@H](CO)NC(=O)[C@@H](N)Cc1c[nH]cn1)[C@@H](C)O)[C@@H](C)O)C(=O)N[C@@H](CCCNC(=N)N)C(=O)N[C@@H](CCCNC(=N)N)C(=O)N[C@@H](C)C(=O)N[C@@H](CCC(N)=O)C(=O)N[C@@H](CC(=O)O)C(=O)N[C@@H](Cc1ccccc1)C(=O)N[C@H](C(=O)N[C@@H](CCC(N)=O)C(=O)N[C@@H](Cc1c[nH]c2ccccc12)C(=O)N[C@@H](CC(C)C)C(=O)N[C@@H](CC(C)C)C(=O)N[C@@H](CC(N)=O)C(=O)N[C@H](C(=O)NCC(=O)NCC(=O)N1CCC[C@H]1C(=O)N[C@@H](CO)C(=O)N[C@@H](CO)C(=O)NCC(=O)N[C@@H](C)C(=O)N1CCC[C@H]1C(=O)N1CCC[C@H]1C(=O)N1CCC[C@H]1C(=O)N[C@@H](CO)C(N)=O)[C@@H](C)O)C(C)C)C(=O)O` the total bilirubin was 5.4 ± 2.1 µmol/L (rhesus monkey, female; subcutaneous, 60 µg/kg once daily, 28 days).
`CCN1C(=O)CC[C@H]1c1c(O)cc2c(c1O)C[C@@H](OC(=O)c1cc(O)c(O)c(O)c1)[C@@H](c1cc(O)c(O)c(O)c1)O2` has an IC50 of 46.7 µM (rep main protease; enzyme activity, inhibitor).
With `CC(C)C[C@H](NC(=O)c1cc2c(F)ccc(F)c2[nH]1)C(=O)N[C@@H](C[C@@H]1CCNC1=O)C(=O)c1nc2c(F)cccc2s1` the IC50 was 0.05 µM (rep main protease; enzyme activity, inhibitor).
The IC50 of `O=C(c1cncc2cc[nH]c12)N1CCC(=C2c3ccccc3CS(=O)(=O)c3ccccc32)CC1` is reported as 0.009 µM and 0.0089 µM (rep main protease; enzyme activity, inhibitor).
With `CCC1c2ccsc2CCN1C(=O)Cn1cc(C(=O)O)nn1` (stereo not drawn) the IC50 was > 100 µM (rep main protease; enzyme activity, inhibitor).
`Cc1ccc(OCCN(C)C)cc1C(=O)N[C@H](C)c1cc(-c2cnn(C)c2)cc(-c2cnn(C3CC3)c2)c1` has an IC50 of 0.103 µM (rep papain-like protease; enzyme activity, inhibitor, FRET).
`CCN(CC)S(=O)(=O)c1ccc2nnn(OCc3ccccc3)c2c1` gave an IC50 of > 100 µM (rep main protease; enzyme activity, inhibitor).
`CCC(C(=O)Nc1ccccc1Cl)n1cccc2nc(SCc3ccc(F)cc3)nc1-2` (stereo not drawn) gave an IC50 of 14.1 µM (rep papain-like protease; enzyme activity, inhibitor).
`Cc1oc2nc1C(=O)N[C@](C)(C(=O)NCCc1ccccc1)c1nc(c(C)o1)C(=O)N[C@](C)(C(=O)NCCc1ccccc1)c1nc(c(C)o1)C(=O)N[C@]2(C)C(=O)NCCc1ccccc1` gave an IC50 of 7.35 µM and 7.3 µM (rep main protease; enzyme activity, inhibitor).
The IC50 of `O=C(NCCc1cccnc1)C(c1cncnc1)N(C(=O)C(F)Cl)c1ccc(S(F)(F)(F)(F)F)cc1` (stereo not drawn) is reported as 0.14 µM (rep main protease; enzyme activity, inhibitor).
`N#Cc1ccccc1CC(N)C(=O)NC(Cc1ccc(Cl)cc1Cl)C(=O)NC(CC(=O)NCCc1ccccc1)Cc1ccc(F)cc1` (stereo not drawn) gave an IC50 of 0.5 µM (rep main protease; enzyme activity, inhibitor, fluorescence).
`CC1CC(c2ccc(C(=O)O)o2)=NN1c1ccc(C#N)c(Cl)c1` (stereo not drawn) has an IC50 of 63.1 µM (rep methyltransferase; enzyme activity, inhibitor).
For `Oc1cc(O)c2c(c1)OC(c1ccc(O)c(O)c1)C(OC1(c3ccc(O)c(O)c3)Oc3cc(O)cc(O)c3C(O)C1O)C2` (stereo not drawn), the IC50 was 2.22 µM (rep methyltransferase; enzyme activity, inhibitor).
For `Nc1nnc(SC2CC(=O)N(c3cccc4ccccc34)C2=O)s1` (stereo not drawn), the IC50 was 1.52 ± 0.04 µM (rep main protease; enzyme activity, inhibitor; 10 min preincubation).
With `C[C@@H](Cc1ccc(O)c(O)c1)[C@@H](C)Cc1ccc(O)c(O)c1` the IC50 was 16.3 µM (rep papain-like protease; enzyme activity, inhibitor, FRET).
`CC(C)[C@@H]1CC[C@@H](C)C[C@H]1NC(=O)c1ccccc1[Se][Se]c1ccccc1C(=O)N[C@@H]1C[C@H](C)CC[C@H]1C(C)C` gave an IC50 of 8.33 µM (rep main protease; enzyme activity, inhibitor).
With `CNC(=O)C[C@H](Cc1ccncc1)NC(=O)[C@@H](Cc1cccc(Br)c1)NC(=O)[C@@H](N)Cc1ccsc1` the IC50 was 4 µM (rep main protease; enzyme activity, inhibitor, fluorescence).
With `[N-]=[N+]=N[C@]1(COP(=O)(O)OP(=O)(O)OP(=O)(O)O)O[C@@H](n2ccc(N)nc2=O)[C@@H](F)[C@@H]1O` the IC50 was 440 µM (Replicase polyprotein 1ab, polymerase (rep, Severe acute respiratory syndrome coronavirus 2, UniProt P0DTD1); cell-free assay, inhibitor).
For `Oc1ccccc1/C=N/NC(=S)Nc1ccc(Cl)cc1`, the IC50 was 32.9 µM (rep main protease; enzyme activity, inhibitor, FRET).
`O=c1c2ccccc2sn1-c1ccccc1` has an IC50 of 0.2 ± 0.03 µM (rep main protease; enzyme activity, inhibitor; 10 min preincubation, 30 nM enzyme, added: 20 µM substrate).
For `Nc1ncnc2c1ncn2[C@@H]1O[C@H](CSc2ccc(Cl)c(C(=O)O)c2)[C@@H](O)[C@H]1O`, the IC50 was 0.021 µM (Replicase polyprotein 1ab, nsp16 with nsp10 (rep, Severe acute respiratory syndrome coronavirus 2, UniProt P0DTD1); methyltransferase activity, inhibitor; 30 min, 30 °C, added: SAM 10 µM).
For `CCc1cccc2c(C(=O)NC3CCN(C(=O)C(C)C)CC3)c[nH]c12`, the IC50 was 4.64 µM (rep main protease; enzyme activity, inhibitor, FRET).
The IC50 of `O=C(/C=C/c1ccc(O)cc1)OC[C@H]1O[C@@H](Oc2cc(O)c3c(=O)cc(-c4ccc(O)cc4)oc3c2)[C@H](O)[C@@H](OC(=O)/C=C/c2ccc(O)cc2)[C@@H]1O` is reported as 8.35 ± 0.35 µM (rep main protease; enzyme activity, inhibitor; added: fluorogenic substrate).
The IC50 of `COc1cc(Oc2c(O)cc(C)cc2OC)c(C(=O)O)c(C)c1O` is reported as 5.2 µM (rep main protease; enzyme activity, inhibitor, FRET).
`CCCNC(=O)C1OC1C(=O)NC(C(=O)N1CCCC1C(=O)OC)C(C)CC` (stereo not drawn) has an IC50 of 39.4 µM (rep papain-like protease; inhibitor).
With `Oc1ccccc1/C=N/NC(=S)NC1CCCCC1` the IC50 was 17.6 µM (rep main protease; enzyme activity, inhibitor, FRET).
With `CC(C)[C@@H]1CC[C@@H](C)C[C@H]1n1[se]c2ccccc2c1=O` the IC50 was 0.346 µM (rep main protease; enzyme activity, inhibitor).

A few entries again:
The IC50 of `O=C(c1cncc2cc[nH]c12)N1CCC(=C2c3ccccc3CS(=O)(=O)c3ccccc32)CC1` is reported as 0.009 µM and 0.0089 µM (rep main protease; enzyme activity, inhibitor).
The IC50 of `O=C(NCCc1cccnc1)C(c1cncnc1)N(C(=O)C(F)Cl)c1ccc(S(F)(F)(F)(F)F)cc1` (stereo not drawn) is reported as 0.14 µM (rep main protease; enzyme activity, inhibitor).
`CCCNC(=O)C1OC1C(=O)NC(C(=O)N1CCCC1C(=O)OC)C(C)CC` (stereo not drawn) has an IC50 of 39.4 µM (rep papain-like protease; inhibitor).
The IC50 of `COc1cc(Oc2c(O)cc(C)cc2OC)c(C(=O)O)c(C)c1O` is reported as 5.2 µM (rep main protease; enzyme activity, inhibitor, FRET).
`CC(=O)N[C@@H](Cc1ccc(O)cc1)C(=O)N[C@@H](CCCNC(=N)N)C(=O)N[C@@H](Cc1ccccc1)C(=O)N[C@H]1CCC[C@@H]1C(=O)N[C@@H](CCCNC(=N)N)C(=O)N[C@@H](CC(N)=O)C(=O)N[C@H]1CCC[C@@H]1C(=O)N[C@H](C(=O)N[C@@H](Cc1ccccc1)C(=O)N[C@H]1CCC[C@@H]1C(=O)N[C@@H](Cc1ccccc1)C(=O)N[C@@H](Cc1ccc(O)cc1)C(=O)N[C@H]1CCC[C@@H]1C(=O)N[C@H](C(=O)N[C@@H](CC(=O)O)C(N)=O)[C@@H](C)O)C(C)C` gave an IC50 of 0.62 µM (rep main protease; enzyme activity, inhibitor).
`N#Cc1ccccc1C[C@@H](N)C(=O)N[C@H](Cc1ccc(Cl)cc1Cl)C(=O)N[C@H](CC(N)=O)Cc1ccc(F)cc1` gave an IC50 of 0.8 µM (rep main protease; enzyme activity, inhibitor, fluorescence).
